# Measured values from different studies.
# Compare with care: the assays were run in different laboratories. ± gives the spread as reported.
# 4'-phosphopantetheinyl transferase PptT: 4'-phosphopantetheinyl transferase PptT (Mycobacterium tuberculosis, UniProt O33336)
# Sequence of UniProt O33336 (whole entry, looked up): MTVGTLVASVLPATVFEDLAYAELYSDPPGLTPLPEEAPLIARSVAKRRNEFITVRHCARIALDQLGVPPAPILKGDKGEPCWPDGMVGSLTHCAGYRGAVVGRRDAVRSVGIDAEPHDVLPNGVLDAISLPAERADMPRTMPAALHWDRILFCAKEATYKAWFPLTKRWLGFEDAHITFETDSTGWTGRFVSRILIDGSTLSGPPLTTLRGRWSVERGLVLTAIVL
# CNR1: Cannabinoid receptor 1 (CNR1, Homo sapiens, UniProt P21554)
# Sequence of UniProt P21554 (whole entry, looked up): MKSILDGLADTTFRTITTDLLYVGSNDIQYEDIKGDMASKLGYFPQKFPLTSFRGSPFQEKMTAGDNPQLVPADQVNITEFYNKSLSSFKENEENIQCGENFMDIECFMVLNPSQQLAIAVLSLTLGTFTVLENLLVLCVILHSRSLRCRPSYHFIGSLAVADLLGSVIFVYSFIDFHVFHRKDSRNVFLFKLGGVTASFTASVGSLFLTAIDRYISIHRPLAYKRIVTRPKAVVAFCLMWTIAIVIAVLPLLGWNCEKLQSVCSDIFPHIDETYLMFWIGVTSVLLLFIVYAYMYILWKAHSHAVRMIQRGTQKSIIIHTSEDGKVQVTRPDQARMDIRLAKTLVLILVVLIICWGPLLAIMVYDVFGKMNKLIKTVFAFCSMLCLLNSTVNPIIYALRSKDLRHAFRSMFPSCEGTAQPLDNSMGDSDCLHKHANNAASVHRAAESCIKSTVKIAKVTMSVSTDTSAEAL
# coaD: Phosphopantetheine adenylyltransferase (coaD, Mycobacterium tuberculosis, UniProt P9WPA5)
# Sequence of UniProt P9WPA5 (whole entry, looked up): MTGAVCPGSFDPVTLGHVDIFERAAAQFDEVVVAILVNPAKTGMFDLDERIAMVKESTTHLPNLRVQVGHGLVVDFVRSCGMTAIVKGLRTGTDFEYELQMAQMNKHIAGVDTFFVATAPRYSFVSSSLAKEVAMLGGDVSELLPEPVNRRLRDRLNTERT
# Matrix protein 2: Matrix protein 2 (Influenza A virus, UniProt P0DOF5)
# Sequence of UniProt P0DOF5 (whole entry, looked up): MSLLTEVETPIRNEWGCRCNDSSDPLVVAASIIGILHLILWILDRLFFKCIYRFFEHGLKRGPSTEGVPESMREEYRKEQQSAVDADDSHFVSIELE
# Sequence of UniProt P34972 (whole entry, unmodified, looked up): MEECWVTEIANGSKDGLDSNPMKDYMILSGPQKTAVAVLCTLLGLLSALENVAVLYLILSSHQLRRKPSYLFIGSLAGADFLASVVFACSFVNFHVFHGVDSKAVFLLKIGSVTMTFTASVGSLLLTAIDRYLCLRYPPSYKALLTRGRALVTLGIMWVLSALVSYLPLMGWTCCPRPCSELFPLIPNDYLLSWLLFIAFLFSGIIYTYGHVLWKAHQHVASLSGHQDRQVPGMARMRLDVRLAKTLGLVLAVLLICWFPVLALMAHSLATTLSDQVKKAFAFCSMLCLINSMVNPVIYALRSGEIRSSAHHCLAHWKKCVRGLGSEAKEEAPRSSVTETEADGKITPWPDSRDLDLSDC
# Sequence of UniProt I6WXK4 (whole entry, looked up): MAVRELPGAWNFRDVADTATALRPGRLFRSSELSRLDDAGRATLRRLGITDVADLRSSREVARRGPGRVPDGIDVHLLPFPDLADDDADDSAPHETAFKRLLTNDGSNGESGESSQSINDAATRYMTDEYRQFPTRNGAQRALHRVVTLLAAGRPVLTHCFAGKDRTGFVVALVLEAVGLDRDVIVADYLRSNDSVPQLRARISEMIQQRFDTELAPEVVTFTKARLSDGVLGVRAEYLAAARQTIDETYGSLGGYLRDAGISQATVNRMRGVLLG
# Sequence of UniProt P43140 (whole entry, looked up): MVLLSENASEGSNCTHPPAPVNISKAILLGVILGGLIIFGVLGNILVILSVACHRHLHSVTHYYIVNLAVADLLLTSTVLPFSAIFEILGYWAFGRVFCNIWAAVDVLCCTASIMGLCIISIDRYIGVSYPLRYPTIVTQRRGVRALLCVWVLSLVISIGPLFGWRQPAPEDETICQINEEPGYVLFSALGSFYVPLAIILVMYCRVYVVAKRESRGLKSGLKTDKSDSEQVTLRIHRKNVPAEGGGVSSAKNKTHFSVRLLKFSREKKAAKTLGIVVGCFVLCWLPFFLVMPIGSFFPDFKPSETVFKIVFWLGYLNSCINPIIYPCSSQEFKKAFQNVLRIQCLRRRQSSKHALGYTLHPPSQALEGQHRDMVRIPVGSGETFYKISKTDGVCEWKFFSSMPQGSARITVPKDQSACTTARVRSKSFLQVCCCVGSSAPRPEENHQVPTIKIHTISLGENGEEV
# Sequence of UniProt P18508 (whole entry, looked up): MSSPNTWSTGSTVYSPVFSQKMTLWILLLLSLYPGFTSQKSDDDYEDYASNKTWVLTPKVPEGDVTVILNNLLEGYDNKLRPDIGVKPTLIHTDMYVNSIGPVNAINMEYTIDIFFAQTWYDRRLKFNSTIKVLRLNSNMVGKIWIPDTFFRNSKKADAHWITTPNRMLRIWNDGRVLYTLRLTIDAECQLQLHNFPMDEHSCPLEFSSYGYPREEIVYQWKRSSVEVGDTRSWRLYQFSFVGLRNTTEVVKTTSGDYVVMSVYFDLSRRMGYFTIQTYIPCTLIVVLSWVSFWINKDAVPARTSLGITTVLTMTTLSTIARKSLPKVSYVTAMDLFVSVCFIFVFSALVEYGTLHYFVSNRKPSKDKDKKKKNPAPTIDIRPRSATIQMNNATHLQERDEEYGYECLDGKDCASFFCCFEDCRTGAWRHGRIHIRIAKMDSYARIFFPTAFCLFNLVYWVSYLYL
# Sequence of UniProt P25084 (whole entry, looked up): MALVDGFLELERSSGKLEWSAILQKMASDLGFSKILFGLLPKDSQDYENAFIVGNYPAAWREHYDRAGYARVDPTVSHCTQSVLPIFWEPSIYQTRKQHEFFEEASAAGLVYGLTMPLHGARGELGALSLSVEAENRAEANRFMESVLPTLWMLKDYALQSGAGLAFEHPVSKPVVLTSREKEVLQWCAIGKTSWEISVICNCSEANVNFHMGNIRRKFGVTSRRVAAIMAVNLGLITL
# Sequence of UniProt P19969 (whole entry, looked up): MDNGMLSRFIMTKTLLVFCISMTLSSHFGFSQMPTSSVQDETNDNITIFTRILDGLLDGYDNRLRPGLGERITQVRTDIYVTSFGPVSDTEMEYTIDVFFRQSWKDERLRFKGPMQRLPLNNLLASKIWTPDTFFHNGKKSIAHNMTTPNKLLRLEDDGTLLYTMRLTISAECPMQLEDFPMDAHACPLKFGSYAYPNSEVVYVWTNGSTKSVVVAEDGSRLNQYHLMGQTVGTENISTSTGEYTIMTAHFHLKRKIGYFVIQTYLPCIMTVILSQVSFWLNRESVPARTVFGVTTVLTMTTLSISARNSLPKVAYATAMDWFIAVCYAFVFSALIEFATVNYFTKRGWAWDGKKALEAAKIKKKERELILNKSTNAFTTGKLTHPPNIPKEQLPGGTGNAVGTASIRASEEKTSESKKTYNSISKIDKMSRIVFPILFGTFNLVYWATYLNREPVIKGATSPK
Structure (SMILES),target,assay,test system,setting,scale,measurement,value
N[C@@H](CCC(=O)N[C@@H](CS[Se]Cc1ccc(C(=O)Nc2cc(C(F)(F)F)c(Br)c(C(F)(F)F)c2)cc1)C(=O)NCC(=O)O)C(=O)O,"Triple specificity protein phosphatase PtpB (ptpB, Mycobacterium tuberculosis, UniProt I6WXK4)","enzyme activity, inhibitor",,added: glutathione 1 mM,reference: IC50 over mPTPA (M. tuberculosis),selectivity ratio,> 100
Cc1nc(=O)c2cc(CN(C)c3ccc(C(=O)NCC(=O)O)s3)ccc2[nH]1,4'-phosphopantetheinyl transferase PptT,"enzyme activity, inhibitor, fluorescence polarization",,,,Hill slope,1.1
CC(N)Cc1cccc(C(F)(F)F)c1 (stereo not drawn),"Amyloid-beta precursor protein, amyloid-beta 1-40 oligomers (APP, Homo sapiens, UniProt P05067)","binding, STD NMR",,highest STD,,STD NMR signal,8.07%
O=C1CC(=O)N(c2ccccc2)c2cc(Cl)ccc2N1,"Gabrg2/Gabra5, with β2 subunit (Rattus norvegicus, UniProt P18508+P19969)","GABA current potentiation, positive allosteric modulator, whole-cell patch clamp",HEK293,added: GABA at EC10,,Emax,148 ± 15%
COC(=O)CC[C@H](NC(=O)c1ccc(N(C)Cc2ccc3[nH]c(C)nc(=O)c3c2)s1)C(=O)OC,4'-phosphopantetheinyl transferase PptT,"enzyme activity, inhibitor, fluorescence polarization",,,,Hill slope,0.7
CCCCCn1cc(C(=O)c2ccc3c(c2)CC(C)(C)C3)c2ccccc21,CNR1,"Gαi1 engagement, agonist, BRET",HEK293T,,reference: reference agonist,Emax,55.1 ± 5.4%
Cc1nc(=O)c2cc(CN(C)c3ccc(C(=O)NCCCC(=O)O)s3)ccc2[nH]1,4'-phosphopantetheinyl transferase PptT,"enzyme activity, inhibitor, fluorescence polarization",,,,Hill slope,1.5
CCCCCc1cc(O)c2c(c1)OC(C)(C)c1cc(O)c(C)cc1-2,"intestinal alpha-glucosidase, rat",,,,reference: compound over cannabitriol,inhibition potency ratio,3
CCCc1cn(-c2ccc(C(=O)N[C@H]3CCOC3=O)cc2)nn1,"Transcriptional activator protein LasR (lasR, Pseudomonas aeruginosa, UniProt P25084)","reporter gene, agonist","Escherichia coli, DH5α pJN105L/pSC11",100 µM,reference: OdDHL at same concentration,activation,1%
Cc1nc(=O)c2cc(CN(C)c3ccc(C(=O)NCCc4nn[nH]n4)s3)ccc2[nH]1,4'-phosphopantetheinyl transferase PptT,"enzyme activity, inhibitor, fluorescence polarization",,,,Hill slope,1.2
O=S(=O)(O)CCOCC1CSSCC(COCCS(=O)(=O)O)SS1 (stereo not drawn),"Response regulator PhoP (Mycobacterium tuberculosis, UniProt P71814)","binding, LSPR",,,,koff,0.077 ± 0.0031 s⁻¹
O=C(O)c1cnn(-c2ccccc2)c1OCCCCc1c[nH]c2ccccc12,coaD,isothermal titration calorimetry,,,,ligand efficiency,0.22
Cc1nc(=O)c2cc(CN(C)c3cccc(C(=O)N[C@@H](CCC(=O)O)C(=O)O)c3)ccc2[nH]1,4'-phosphopantetheinyl transferase PptT,"enzyme activity, inhibitor, fluorescence polarization",,,,Hill slope,1.4
COc1ccc(CNC23CC4C5CC6CC4C(C2)C(C6)C5C3)c(O)c1,Matrix protein 2,binding,,,,kon,378.2 ± 1.1 M⁻¹ s⁻¹
Cc1cn(CCC(=O)O)c2ccccc12,coaD,competition ITC,,,,ligand efficiency,0.28
COc1ccc(CNc2ccc(C34CC5CC(CC(C5)C3)C4)cc2)c(O)c1,Matrix protein 2,binding,,,,kon,381.7 ± 1.4 M⁻¹ s⁻¹
CCOC(=O)CC[C@H](NC(=O)c1ccc(N(C)Cc2ccc3[nH]c(C)nc(=O)c3c2)s1)C(=O)OCC,4'-phosphopantetheinyl transferase PptT,"enzyme activity, inhibitor, fluorescence polarization",,,,Hill slope,0.7
CCCCCn1cc(C(=O)c2cccc3c2CC(C)(C)C3)c2ccccc21,"Cannabinoid receptor 2 (CNR2, Homo sapiens, UniProt P34972, L182I)","Gαi1 engagement, agonist, BRET",,,reference: reference agonist at wild-type CB2,Emax,17.6 ± 2.7%
"CCOC(=O)C1C(OC(c2ccc(Cl)cc2)c2ccc(Cl)cc2)CC2CCC1N2C (single isomer, unassigned)","Alpha-1A adrenergic receptor (Adra1a, Rattus norvegicus, UniProt P43140)","binding, radioligand displacement",rat submaxillary gland,"inactive if below 75% at 10000 nM, added: [3H]prazosin",,Ki,inactive
Cc1nc(=O)c2cc(CN(C)c3ccc(C(=O)N[C@H](CCC(=O)O)C(=O)O)s3)ccc2[nH]1,4'-phosphopantetheinyl transferase PptT,"enzyme activity, inhibitor, fluorescence polarization",,,,Hill slope,2
CCCCCn1cc(C(=O)c2cccc3ccccc23)c2ccccc21,CNR1,"Gαi1 engagement, agonist, BRET",HEK293T,,reference: reference agonist,Emax,140 ± 5.6%
Cc1nc(=O)c2cc(CN(C)c3ccc(C(=O)Nc4n[nH]c5ccccc45)s3)ccc2[nH]1,4'-phosphopantetheinyl transferase PptT,"enzyme activity, inhibitor, fluorescence polarization",,,,Hill slope,1
Clc1ccc(CNC23CC4CC(CC(C4)C2)C3)s1,Matrix protein 2,"ion current, two-electrode voltage clamp",,100 µM,,inhibition,91%
CCCCCn1cc(C(=O)c2ccc3ccccc3c2)c2ccccc21,"Cannabinoid receptor 2 (CNR2, Homo sapiens, UniProt P34972)","Gαi1 engagement, agonist, BRET",HEK293T,,reference: reference agonist,Emax,84.5 ± 6.5%
